Experimental data from different studies.
Each numbered part is a random draw from the data of one study; scales do not carry over between parts. Substitutions count along the parent as printed.

Series 1
Target: RNA binding protein fox-1 homolog 2, RRM domain, GST-SBP tag (RBFOX2, Homo sapiens, UniProt O43251-10, residues 100-194)
Technique: RNA Bind-n-Seq
Molecule type: RNA
Sample: in vitro
Concentration: 365 nM
Notes: natural RNA segment, single round, ends assumed
Reference: no-protein control
Reading: higher = stronger binding
All sequences stand within: GGGAGUUCUACAGUCCGACGAUC … UGGAAUUCUCGGGUGCCAA
Target sequence (chain): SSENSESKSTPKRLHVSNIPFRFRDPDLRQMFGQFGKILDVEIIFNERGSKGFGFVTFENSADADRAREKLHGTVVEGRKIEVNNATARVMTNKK
| Strand | RBNS enrichment (R) |
| --- | --- |
| ACUGUAAUAUUGUGGGACUAACAUGGAUGUAACGUUUAAAAAAAAGAUCAGGAUUAUUAGUAACAAUUCUAGUUUUUUCCUCCCACCUUCUCCCUCUCCUCUCUCCUCUA | 0.698 |
| AGGGUUUGUCUGUCCUGAAAGUGACACCCACCAGCUCUGCGGGAGACUCUUGGUAGACAGACCUGUGGGGUAGCAGGCCUGGCAGGAGUGGGACAGCCCCUUGAAGCAUU | 1.04 |
| CACCCACGGGUGGUCCAGGUCACGACUCUGCACGCCCUUAGGCCAGGUCAGCUGCGAGGGUCACAGAGCGUUCCGGGGGCCAAGGCGCCGGGCCCCGGGGCCAUGCUCUU | 0.298 |
| AUUUGAUGACAAAUGUUUGUAUCCUUACAAAAGACCUUGUAUGUUUACGAAUUCUGCCAUGCAGCGAUUCUUUAAGGAUAGUUUGUUUUAUUUAUCUUGUACAUAUGUAU | 0.741 |
| AGUUGAAGUACUAUGAAUACAACCUGCUAAUCUUGAUCCCCAAAUCUGAGCCCUUCAGUUUCAUAAUUGUUUUAUCCUGAACGUAGUUGUGACAUAGACAUUUCUCAAAA | 0.312 |
| AUAUGGGUGUUACAUUGCAAAAAUCUCUAUCUUUGUUCUAUUCACAUGCUUAAAGAAGUAAGAAAUCUUUUGUGGAUAUGUAAUUAUACAUAUAAAGUAUAUAUAUAUGU | 0.661 |
| ACUUGUUCUAGUGAGUGGUGGGACUGUACAUUUUUGAAUAGACCUCAAAAAUACUUCAUUCUGCUGCUGUUCAGUUGGCUUUUUAAACCUGUCUGCAGUAGGACACUGAA | 0.233 |
| UUCUGGCCUAUUGUCUGCUUCGCUGUGUAGGUAGCCUGACUUGACAGAGGUUUCUCCUGGUUUUCCUUGUUUCUACCCAGAGAAUUUCCUACUCCCCUUUCCCUCCAAAU | 1.45 |
| GCAGAAAGAAUAUGGGCUCUGCAAUGAGACAGACCUGGAGGGGACUCUCCCGUUGAGCACUAGCAGCUGGAGGAGUUGGGAGUUCAUGGCUAUCAUGGUUGUGUUAAUCG | 0.907 |
| GGGUCCAGCUUGCGGGGGACCCUCCCCAGCCCAUUCCUGCUGUCAAACAAACAAAACCUUGCAAAGCCUGGGUUCUGCUGGCUGUUUUUCUCCCUACAUCGCGUUCCUCA | 1.03 |
| AAAAGAGUGCCUAAGCGGGGGUGAAAGAGGACGUGUUACCCACUGCCAUGCACCAGGACUGGCUGUGUAACCUUGGGUGGCCCCUGCUGUCUCUCUGGGCUGCAGAGUCU | 0.572 |
| UGAGUCACAUAAGGAAACCACCUUUGACCUCUCUGACACUUUUGUCUUUAAGCCACGUCUCUGAAAUCUUGUGAGGGGUGAAGAAAGAGGACUGGAGAUGAAUGGACAAU | 0.339 |

Series 2
Target: Eukaryotic initiation factor 4A-I (EIF4A1, Homo sapiens, UniProt P60842, residues 1-406, full length assumed)
Chain of UniProt P60842 (whole entry, looked up): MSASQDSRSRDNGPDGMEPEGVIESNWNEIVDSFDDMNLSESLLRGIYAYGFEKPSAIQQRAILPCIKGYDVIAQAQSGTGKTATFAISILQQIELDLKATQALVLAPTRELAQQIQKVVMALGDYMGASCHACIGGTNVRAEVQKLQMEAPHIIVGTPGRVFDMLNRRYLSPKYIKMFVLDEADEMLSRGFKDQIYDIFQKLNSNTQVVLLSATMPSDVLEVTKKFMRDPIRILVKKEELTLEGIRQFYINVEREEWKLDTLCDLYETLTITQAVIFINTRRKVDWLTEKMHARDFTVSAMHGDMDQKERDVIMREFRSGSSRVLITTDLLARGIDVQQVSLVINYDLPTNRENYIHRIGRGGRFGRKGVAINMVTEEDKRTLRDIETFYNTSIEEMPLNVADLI
Technique: RNA Bind-n-Seq
Molecule type: RNA
Sample: in vitro
Concentration: 15 pmol
Notes: 4-mer, random 30-nt RNA, single round
With: 3 µM RocA, 2 mM AMP-PNP
Reference: mean of 4-mers
Reading: higher = stronger binding
| Strand | 4-mer enrichment Z-score |
| --- | --- |
| AGUG | 1.73 |
| CAUU | -1.3 |
| AUUC | -1.04 |
| CAAU | -0.908 |
| UCUG | -0.278 |
| AGCC | -0.673 |
| CCCG | -0.58 |
| AAGA | 1.85 |
| AGCU | -0.326 |
| UAUU | -0.016 |
| UUUG | 0.673 |
| CCGA | -0.304 |
| AGCA | -0.145 |
| GUGU | 1.7 |
| GAAC | 0.146 |
| UAUA | 0.254 |
| CGUU | -0.251 |
| CAUC | -1.64 |
| UCGC | -0.873 |
| UAAG | 1.14 |
| CGGC | -0.15 |
| AUGC | -0.122 |
| CUUA | -0.788 |
| CGAC | -0.648 |
| UCCU | -1.15 |

Series 3
Target: CCNB3, cyclin fold, Cln2 fusion (human)
Technique: yeast growth competition, sequencing
Sample: yeast
Notes: weak parent motif
Reference: not given
Reading: higher = stronger binding
Parent: RP1L1 docking peptide (human); TLGLGPLSFTLED; partner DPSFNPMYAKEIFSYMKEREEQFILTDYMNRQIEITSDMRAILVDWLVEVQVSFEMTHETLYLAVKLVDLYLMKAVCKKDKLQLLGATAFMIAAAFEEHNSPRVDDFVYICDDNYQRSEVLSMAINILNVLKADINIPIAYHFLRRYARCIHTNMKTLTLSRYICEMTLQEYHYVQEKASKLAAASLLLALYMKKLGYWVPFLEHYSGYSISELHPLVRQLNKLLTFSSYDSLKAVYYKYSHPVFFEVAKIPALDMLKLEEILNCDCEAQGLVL
| Substitution | normalised enrichment score |
| --- | --- |
| T1A | 0.0265 |
| F9A | -0.0626 |
| G3A | 0.00354 |
| L11A | -0.343 |
| G5A | 0.228 |
| L2A | -0.259 |
| L7A | -0.17 |

Series 4
Target: Histone acetyltransferase KAT6A, winged helix 1, GST fusion (KAT6A, Homo sapiens, UniProt Q92794, residues 1-85)
Technique: protein binding microarray
Molecule type: double-stranded DNA, one strand shown
Sample: in vitro
Concentration: not given
Notes: 8-mer, flanks averaged, mean of 2 arrays, mostly near background
Reference: not given
Reading: higher = stronger binding
Target sequence (chain): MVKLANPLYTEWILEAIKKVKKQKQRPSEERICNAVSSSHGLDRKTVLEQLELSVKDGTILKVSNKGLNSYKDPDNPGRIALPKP
| Strand | E-score |
| --- | --- |
| GAATAATA | -0.0802 |
| AAAAGCCG | 0.335 |
| AAAAGCAC | -0.172 |
| GAACAATC | -0.00848 |
| GTCTTGTA | -0.103 |
| ACAAGAAG | -0.0594 |
| AAACTTGT | -0.119 |
| CTTTCAAA | -0.102 |
| CAATATGC | 0.000855 |
| ACGAGCGG | 0.272 |
| ATGAAAGC | -0.127 |
| AGCAGTGG | -0.0795 |
| ATTATCGG | 0.0667 |
| AGACGAAT | -0.136 |
| GCCTGCTA | -0.123 |
| ATACACCG | 0.186 |
| CTCCAGAG | -0.0631 |
| CCTAGTCG | -0.0878 |
| GTGCGCGA | 0.364 |
| AGCGGTTA | 0.13 |
| CGGTTCCC | 0.179 |
| GTCCCTGA | -0.178 |
| AAACACTG | 0.0289 |
| CATGCGCC | 0.358 |
| ACTGGATC | -0.0585 |

Series 5
Target: Interferon regulatory factor 7, full length, phosphomimetic (IRF7, Homo sapiens, UniProt Q92985, residues 1-503, S101K/S471D/S472D/S475D/S476D/S477D/S483D/S484D/S487D)
Chain of UniProt Q92985 (whole entry, unmodified, looked up): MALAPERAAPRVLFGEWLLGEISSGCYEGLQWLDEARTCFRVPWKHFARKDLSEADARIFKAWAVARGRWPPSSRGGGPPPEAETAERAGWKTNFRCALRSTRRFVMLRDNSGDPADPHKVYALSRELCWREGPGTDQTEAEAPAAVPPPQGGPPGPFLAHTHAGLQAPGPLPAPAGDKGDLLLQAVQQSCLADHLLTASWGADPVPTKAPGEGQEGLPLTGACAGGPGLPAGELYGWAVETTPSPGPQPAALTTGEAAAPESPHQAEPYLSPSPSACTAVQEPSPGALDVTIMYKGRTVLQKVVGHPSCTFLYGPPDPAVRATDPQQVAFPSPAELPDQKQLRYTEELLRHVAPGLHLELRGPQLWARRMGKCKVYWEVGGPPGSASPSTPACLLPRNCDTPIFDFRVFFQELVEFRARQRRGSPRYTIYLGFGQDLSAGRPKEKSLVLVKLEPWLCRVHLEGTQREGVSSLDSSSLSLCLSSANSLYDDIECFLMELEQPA
Technique: protein-binding microarray
Molecule type: double-stranded DNA, one strand shown
Sample: in vitro
Concentration: 250 nM
Notes: 60-bp whole probe
With: salmon DNA 0.4 mg/ml
Reference: random background probes
Reading: higher = stronger binding
All sequences stand within: GCCTAGCAC … GTCTTGATTCGCTTGACGCTGCTG
| Strand | log fluorescence [z-score] |
| --- | --- |
| TCAGATTTATCAAATGTGACTGTGCTA | -0.25 |
| GGGAGTGTCAATAATGACCACGTGCTA | -0.552 |
| TTAGAGCTGAGTATCGATTAGTGCTAG | -0.102 |
| TTAGAACTGAGACTGGAATAGTGCTAG | -0.269 |
| GACGGAGTGGACTATCGGGACGTGCTA | -0.883 |
| TTAGGTATCGACTTTCGGCTAGTGCTA | 1.41 |
| GACGATGCCAGTTTCGAGACGTGCTAG | 3.08 |
| TAATGGATATATATCATTTAGTGCTAG | 0.265 |
| TGTGGACCTTGGGAGATTTCGTGCTAG | -1.07 |
| GACGGTTTCGGGACTGGGGAAGTGCTA | 4.48 |
| GATGGTATCCTTATCCTGACGTGCTAG | -0.01 |
| TTAGGAATCGACACTGGGTTAGTGCTA | -0.0483 |
| GACGATATCAGACTGGAGACGTGCTAG | -0.371 |
| TTAGATATCAGACCGGATTAGTGCTAG | 0.313 |
| GACGATTCCAGCTTCGAGACGTGCTAG | 0.408 |
| TCATTTTTCTCAACCGTACTGTGCTAG | 1.29 |
| GACGTTTTCAGACTGGAGACGTGCTAG | 0.638 |
| TCACTTCTGTATTCATGACTGTGCTAG | 0.804 |
| GACGGACTGCTTTTCCTGGCGTGCTAG | -0.0665 |
| TTAGAACTGGGGCCTGGATTAGTGCTA | -0.209 |
| GACGGACTGATTTTCCTGACGTGCTAG | 0.0831 |
| TCAGCTCTTGTTTTCACACTGTGCTAG | 0.242 |
| GACGGTATCGATTTTCGGGACGTGCTA | 2.78 |
| GACGGTATCGGTCTCGGGTCGTGCTAG | 1.51 |
| TCGTAAGCAAAAATGATTGGGTGCTAG | -0.0329 |

Series 6
Target: CEBPD, bZIP domain (human)
Technique: DHFR protein complementation
Sample: yeast
Notes: single substitutions, most at no-binding floor
Reference: wild-type JUN-FOS pair
Reading: higher = stronger binding
Parent: JUN, bZIP domain (human); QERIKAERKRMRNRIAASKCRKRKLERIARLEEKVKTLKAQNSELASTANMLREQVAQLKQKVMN; partner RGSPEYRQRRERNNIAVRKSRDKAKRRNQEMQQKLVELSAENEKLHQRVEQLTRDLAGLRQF
| Substitution | binding fitness |
| --- | --- |
| E33G | -1.36 natural log |
| Q41A | -1.38 natural log |
| Q55S | -1.43 natural log |
| A49Y | -1.39 natural log |
| S43F | -1.23 natural log |
| R30T | -1.22 natural log |
| S43M | -1.31 natural log |
| A57K | -1.44 natural log |
| E44V | -1.35 natural log |
| Q41M | -1.43 natural log |
| L31Q | -1.37 natural log |
| E32C | -1.42 natural log |
| A40Q | -1.23 natural log |
| K34P | -1.49 natural log |
| A49S | -1.42 natural log |
| Q41S | -1.48 natural log |
| I28D | -1.35 natural log |
| E33Q | -1.43 natural log |

Some of these lines once more (series 6):
| Substitution | binding fitness |
| --- | --- |
| Q55S | -1.43 natural log |
| A49Y | -1.39 natural log |
| S43F | -1.23 natural log |
| R30T | -1.22 natural log |
| S43M | -1.31 natural log |
| A57K | -1.44 natural log |
| E44V | -1.35 natural log |
| Q41M | -1.43 natural log |
| L31Q | -1.37 natural log |
| E32C | -1.42 natural log |
| A40Q | -1.23 natural log |
| K34P | -1.49 natural log |
| A49S | -1.42 natural log |
